Results from different studies.
Each numbered part is a random draw from the data of one study; scales do not carry over between parts.

Block 1
Target: Hepatocyte nuclear factor 3-alpha (Foxa1, Mus musculus, UniProt P35582, residues 1-468, full length assumed)
Method: EMSA with sequencing
Molecule type: double-stranded DNA, one strand shown
Sample: in vitro
Concentration: 10 and 20 nM
Setting: whole designed probe, mean of two concentrations, ends assumed
Reference: negative control set to 0
Reading: higher = stronger binding
Construct (chain): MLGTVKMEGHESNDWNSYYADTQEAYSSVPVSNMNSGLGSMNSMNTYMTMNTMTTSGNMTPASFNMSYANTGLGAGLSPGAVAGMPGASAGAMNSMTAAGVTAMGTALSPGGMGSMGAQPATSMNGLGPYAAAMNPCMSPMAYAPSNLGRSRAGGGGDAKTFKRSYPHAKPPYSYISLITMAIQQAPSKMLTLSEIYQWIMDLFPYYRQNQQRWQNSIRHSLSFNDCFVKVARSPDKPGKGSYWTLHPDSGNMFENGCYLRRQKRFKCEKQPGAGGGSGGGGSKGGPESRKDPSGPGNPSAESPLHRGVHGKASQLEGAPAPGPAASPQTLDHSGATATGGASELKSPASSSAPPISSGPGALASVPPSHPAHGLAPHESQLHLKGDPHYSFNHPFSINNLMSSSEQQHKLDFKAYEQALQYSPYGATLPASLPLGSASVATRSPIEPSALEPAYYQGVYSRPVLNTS
Oligonucleotide | normalised bound fraction [ratio]
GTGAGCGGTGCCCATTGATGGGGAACATCTTCCCCCTCTTCCTTGCCCCACCAGCTCACCTTCCCGGGTTATTTGCAGATAGGAAAATAAATAAAGCCGGCATTCGTTAACCCTCTTCACGCGCATACTGCTGTTTGCTCTGCATGAATCATGGTCCTTACGCGAGGCGTGGCTCCGGGAGAGCAAAGCACCGTGTCAGGCGCATGATCCGGGGTGGCCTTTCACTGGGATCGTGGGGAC | 0.356
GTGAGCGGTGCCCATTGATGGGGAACATCTTCCCCCTCTTCCTTGCCCCACCAGCTCACCTTCCCGGGTATATTGGAGATAGGAAATTAATATAAGCCGGCATTCGTTAACCCTCTTCTGGCGCAAACTGCCAAAGTAAACAGATGAATCATGGTCCTTTGGCGACGCCAGGCTCCGGGAGAGCAAAGCACCGTGTCAGGGCCATGATCCGGGGTGGCCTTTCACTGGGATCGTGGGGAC | 0.397
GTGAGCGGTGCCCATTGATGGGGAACGAATAATCCCATTGTAAGTCACTCGCCTTCTGGTGGATTTCGGTCAGGGTCAAAGAGCAAACGGGCAGGAACTGGGCTGTTTGAATGAGCTTTGTAATCTAGGTCGTCATCAAGCCATGACTCAATACACAGTGAATTATCTGAAGCCTTTTAGAATTAGCAACTAACCTCCAGGAAACTGGTGCATGTTGCATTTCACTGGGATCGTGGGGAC | -0.0541
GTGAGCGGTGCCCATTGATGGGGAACGGCGGAAGTGGAAAGAAATTGAGGGATCTGAATTTGTTGTTTACTAGGAGGTGTGGGTCCAACTTCCAACCTTGTCCCCAGACCTTTTCCAGGAGATTGCTTAGGAAGCACTGCCATCTTGTGGCTTACTATAGTTATTGCAGACAGAAGGAAAATCTACCAAAGCCCCCATGACAATACCAATGAGCAATGATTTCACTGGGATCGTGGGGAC | -0.00589
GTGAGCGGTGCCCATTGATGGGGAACTTTACTTGTTTCTTTACATCACAGATATTTTGTTGAAAACTATTAAGATAGTATTTCTAGAATATAATAAAACATTCAGAATAGCATTGCTAAGCAAATACACTGTGCCATGATTATGTTTTTTTGCAATGTGTATGCAATTGCTTTATTTTACATTAGGAAATAGACAAAATGCATCTATTCATTTTTCTTTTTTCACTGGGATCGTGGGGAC | 0.283
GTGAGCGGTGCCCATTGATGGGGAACATCTTCCCCCTCTTCCTTGCCCCACCAGCTCACCTTCCCGGGTTATTTGCAGATAGGAAAATAAATAAAGCCGGCATTCGTTAACCCTCTTCTGGCGCAAACTGCTGTTTGCTCTGGATGAATCATGGTCCTTTGGCGACGCCAGGCTCCGGGAGAGCAAAGCACCGTCTGGAGGCCATGATCCGGGGTGGCCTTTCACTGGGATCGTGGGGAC | 0.333
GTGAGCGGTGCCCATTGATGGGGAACGTAACTACAGTCTCAACCTGCCACATTTTATCATAGGATCAAATCCAGTAATAAAATAATGAGTCTTGGAGGGCAGGCCAGACAGCTCATCTGAGATTACTGAAAGCATCCAGCATATCTTATGAGACACGTGGTGCCAAACAGATGGGTGGCCGCCCTCCCTCATCTGCCTGCCTGAGGCTTGCCCAACTGCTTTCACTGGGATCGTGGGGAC | -0.0587
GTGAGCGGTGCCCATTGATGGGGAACTTACCGAAGATAGGAATTTCTTGCTTTTATTAAAACTGACCCAAATGTAATCCAATCAGGATTGCAAGATGTTATATTTGACCTATAAATATAAGTAATCTTGGCTCTCTTTATCTGGGAGCCATTTGTTGTGAAGGCAGAATTCCTTCATATATGTTTTACTGTTGCAGATAAAACTCAGTATTAAAAAAATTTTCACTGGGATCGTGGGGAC | 0.0668

Block 2
Target: RNA binding protein fox-1 homolog 2, RRM domain, GST-SBP tag (RBFOX2, Homo sapiens, UniProt O43251-10, residues 100-194)
Method: RNA Bind-n-Seq
Molecule type: RNA
Sample: in vitro
Concentration: 365 nM
Setting: natural RNA segment, single round, ends assumed
Reference: no-protein control
Reading: higher = stronger binding
Construct (chain): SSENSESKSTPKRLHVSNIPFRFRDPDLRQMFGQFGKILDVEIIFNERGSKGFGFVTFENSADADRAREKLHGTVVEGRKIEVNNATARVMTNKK
Oligonucleotide | RBNS enrichment (R)
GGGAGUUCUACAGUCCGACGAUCUGAAAAAUUCCUCUUUGAACCUGGCAGAUGCAGCUAGGCUCUGCAGUGCUGUUUGGAGACUGUGAGAGGGAGUGCGUGUGUUGACACAUGUGGAUCAGGCCCAGGAAGGGUGGAAUUCUCGGGUGCCAA | 0.395
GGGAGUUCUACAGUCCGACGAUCUGCCUCUGUACAAGAUGUAGCUUUGAGAGCUACAAAAUGAUAACACUGCUUUAUUACACACUGGUUUCAUUGUCAUUGCAAAAACUUACCCUGGUUGUGGGGGAGAGUUCUGGAAUUCUCGGGUGCCAA | 0.554
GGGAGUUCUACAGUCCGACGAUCACAUCACAUGAAUAAAGGUAUGUAUGUACGAAUGUGUAUAUAUUAUAUAUAUGACAUCUAUUUUGGAAAAUGUUUGCCCUGCUGUACCUCAUUUUUAGGAGGUGUGCAUGUGGAAUUCUCGGGUGCCAA | 0.995
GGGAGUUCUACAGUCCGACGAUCGCUCUCCCACGCCUGGACUGAGGAAUGCUGGGCAGAAGGCCCCACCAUCUUCUUUCAUUCUGUGCUGUGGUCUGCAGUGGAAACAGCAGGCCUUUCAGCUCCUUGUGUGCUGGAAUUCUCGGGUGCCAA | 0.289
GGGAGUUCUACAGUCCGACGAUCAGUAGUUGUUGGAGACCUGGUAGUGGGAAGGAUGUUAUGGGUCACUGGAAAGUGGCCAGUCUUCACAGCAUCCUUUCAUCUUUUCCUCUUCCACAAAAUCAGUGUCCUGUUGGAAUUCUCGGGUGCCAA | 0.359
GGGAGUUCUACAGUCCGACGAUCGCGGGAACUUCCUCCUGAACUACCCAGGGCCUAAUCAUCCAGCACCUGUGUGUUGAGGUAGACUGGUCAGAUACAGGGCAGAAGUCAGGGGUGUAGGUUCGAGGAAGGAGUGGAAUUCUCGGGUGCCAA | 0.621
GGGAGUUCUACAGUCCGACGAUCUCCACAUGGAUGACCAGGAACCUGGUCUUGUUGGAGCUGGCAUAGGAGGUUCUACUGUCUUGUCGUCCACUCUUGUCCCUCCCUUCUGUUAUCAAAGUUAAAGCGCCUCUUGGAAUUCUCGGGUGCCAA | 0.539
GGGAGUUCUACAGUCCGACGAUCCAAAUGUUCUGAGACCUUUGGGGCCAUUUAUUACUUUGUACAAGCCCAAUAAUCCUCUCUUUUCUGCCAAGUCCUCAACCCAGAAAUGUAGGCUUCUGUGCACCACACGGUGGAAUUCUCGGGUGCCAA | 0.399
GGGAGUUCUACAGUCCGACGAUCACACUGUAUACUUGUUUCUCUCCAAAGCGAAAUUAAGUAUUUAUAAUUUCAAUUGCCUCGAUAAGUUUCCAAGUCACUGAAAUCUGCUGAAGGUUUUACUGUAUUGUUGCUGGAAUUCUCGGGUGCCAA | 0.592
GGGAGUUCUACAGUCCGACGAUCGGGGAGGAAUAAUUUUAUAAUUGCAUUUCCAGGUAUUUUUCAAGAUUACGAAAAUAUGCUACUCUGAUGUGUUAUGGUUCCUGAAUUUCUUUUCUUUCUCACCCUCUUUGUGGAAUUCUCGGGUGCCAA | 0.503
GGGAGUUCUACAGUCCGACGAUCACGGAUAGGCUCAGUUAGUCAGGAAUGUUUACACCUCAGUUAACUUCAGUGAUUGACUUAAAGACUGGGAGGUAUAUUGCCUGUGAGAGAAAUGUCUUUUCAUGAAUCCUUGGAAUUCUCGGGUGCCAA | 0.487
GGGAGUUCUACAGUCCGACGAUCCAGACUAUAAUAUUCAUAUUUAAACAAAGCAAUUUUUUUUAUUACUAAACAAGGUUUUUAUGAAUAAUAGCAUUGAUAUAUAUAUAUUAUAUAUCACCCUUUAGAUCUUGUGGAAUUCUCGGGUGCCAA | 0.664

Block 3
Target: Histone acetyltransferase KAT6A, winged helix 2, GST fusion (KAT6A, Homo sapiens, UniProt Q92794, residues 85-181)
Method: protein binding microarray
Molecule type: double-stranded DNA, one strand shown
Sample: in vitro
Concentration: not given
Setting: 8-mer, flanks averaged, mean of 2 arrays, mostly near background
Reference: not given
Reading: higher = stronger binding
Target sequence (chain): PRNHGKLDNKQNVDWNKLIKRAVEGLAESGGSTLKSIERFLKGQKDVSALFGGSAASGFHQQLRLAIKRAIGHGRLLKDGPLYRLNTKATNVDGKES
Oligonucleotide | E-score
ATGGCTCC | 0.0415
ATGCCGGG | 0.0972
GTCGACAA | -0.045
GCATAGCA | 0.154
ACTAAGAT | 0.136
TACCATAA | -0.0721
ACGTAGCT | -0.0897
CCTATTCA | -0.168
GAGAGCTC | -0.0666
AGGGCTCA | -0.0395
AGAGCGTC | -0.0742
CTCACAAG | -0.0391
AAAAGAAT | 0.0987
CAAGAAGC | 0.116
TCTGTCAA | -0.0355
AAATCGCA | 0.128
GGACCCAA | -0.0617
GTAAAAAA | 0.141
CATAGACC | -0.155
CCAGGTGC | 0.0966
ATTACACG | -0.0231

Block 4
Target: Interferon regulatory factor 5, full length, phosphomimetic (IRF5, Homo sapiens, UniProt Q13568-2, residues 1-514, K96S/S451D/S453D/S456D/S462D)
Method: protein-binding microarray
Molecule type: double-stranded DNA, one strand shown
Sample: in vitro
Concentration: 250 nM
Setting: 60-bp whole probe
Together with: salmon DNA 0.4 mg/ml
Reference: random background probes
Reading: higher = stronger binding
Shared flanks, not repeated: GCCTAGCAC … GTCTTGATTCGCTTGACGCTGCTG
Oligonucleotide | log fluorescence [z-score]
TTAAGTCTCGGTCTCGGTTAGTGCTAG | 1.7
GACGGTCTCGTTATCCTGACGTGCTAG | 0.115
TCAGATTTTGGTCTTTCACTGTGCTAG | 1.99
GACGGTATCCTTTTCCAGACGTGCTAG | 0.283
TTAGGTATCGGACTGGATTAGTGCTAG | 1.54
TCAGGTTTCGACACTGGGTTAGTGCTA | 5.33
GACGGTTCCGGTTTCGCGACGTGCTAG | 1.73
TTAGGTATCGGTATCGCTTAGTGCTAG | 8.24
ACCATTGTGGTTTTCATTATGTGCTAG | 1.11
GACGAACTGAGACTGGATACGTGCTAG | -0.206
GACGGTTTCGTGTATCGGGACGTGCTA | 4.08
TATTACCTCATCTTTCCCTGCGTGCTA | 1.03
TCCCTTTTCATGCTCTTATAGTGCTAG | 1.08
GACGGTATCGGGTATCGGGATGTGCTA | 3.64
TTTTTTTTTGGAATGTCTTCGTGCTAG | 1
GCCCCACCCGCTCTGGCCCCGTGCTAG | -0.78
TTAGGTTTCGACTTTCGGTTGGTGCTA | 10.4
GACGGTTACGGTATCGGGACGTGCTAG | 0.872
GACGGTTTGGGACTGGGGACGTGCTAG | -0.166
TCACTTCCCCTCTCTTTCACTGTGCTA | 1.67
CACGGACTGGACTATCGGGACGTGCTA | 0.71

For quick reference, copied from above (block 3):
Oligonucleotide | E-score
AGAGCGTC | -0.0742
CTCACAAG | -0.0391
AAAAGAAT | 0.0987
CAAGAAGC | 0.116
TCTGTCAA | -0.0355
AAATCGCA | 0.128
GGACCCAA | -0.0617
GTAAAAAA | 0.141
CATAGACC | -0.155
CCAGGTGC | 0.0966
